Assay results gathered from unrelated publications.
Every numbered part comes from another study and shows a few of its results, in no order. Changes are numbered by the printed parent chain.

Sample 1
Target: Histone acetyltransferase KAT6A, winged helix 2, GST fusion (KAT6A, Homo sapiens, UniProt Q92794, residues 85-181)
Method: protein binding microarray
Form: double-stranded DNA, one strand shown
Matrix: in vitro
Tested at: not given
Setting: 8-mer, flanks averaged, mean of 2 arrays, mostly near background
Baseline: not given
Reading: higher = stronger binding
Target sequence (chain): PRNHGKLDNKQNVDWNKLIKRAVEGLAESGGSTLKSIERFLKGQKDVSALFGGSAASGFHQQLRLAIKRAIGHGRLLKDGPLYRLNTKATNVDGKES
Strand | E-score
CTGTCATC | -0.0859
AATAACCG | -0.0626
AATAGCCC | -0.147
AGCTCCTG | -0.114
GTTGTAAA | -0.0599
ACCACTAG | -0.196
GTGTCAAA | 0.0894

Sample 2
Target: CCNB2, cyclin fold, Cln2 fusion (human)
Method: yeast growth competition, sequencing
Matrix: yeast
Setting: weak parent motif
Baseline: not given
Reading: higher = stronger binding
Starting sequence: SLBP docking peptide (human); ARYKRKLLINDFG
Substitution | normalised enrichment score
ARYKMKLLINDFG [R5M] | 0.463
ARYLRKLLINDFG [K4L] | 0.924
ARWKRKLLINDFG [Y3W] | 0.533
ARYFRKLLINDFG [K4F] | 0.88
ARAKRKLLINDFG [Y3A] | 0.983
ARYKRKLLINDFA [G13A] | 0.51
ARYKRKLLIHDFG [N10H] | 0.521

Sample 3
Target: RING finger protein unkempt homolog, zinc fingers 1-6, GST-SBP tag (UNK, Homo sapiens, UniProt Q9C0B0, residues 30-357)
Method: RNA Bind-n-Seq
Form: RNA
Matrix: in vitro
Tested at: not given
Setting: RNA with constant flanks, human and mouse sites, ends assumed
Baseline: input RNA pool
Reading: higher = stronger binding
Shared flanks, not repeated: GGGAGUUCUACAGUCCGACGAUC … CAACAGAGGAUUGAGCAUCA
Construct (chain): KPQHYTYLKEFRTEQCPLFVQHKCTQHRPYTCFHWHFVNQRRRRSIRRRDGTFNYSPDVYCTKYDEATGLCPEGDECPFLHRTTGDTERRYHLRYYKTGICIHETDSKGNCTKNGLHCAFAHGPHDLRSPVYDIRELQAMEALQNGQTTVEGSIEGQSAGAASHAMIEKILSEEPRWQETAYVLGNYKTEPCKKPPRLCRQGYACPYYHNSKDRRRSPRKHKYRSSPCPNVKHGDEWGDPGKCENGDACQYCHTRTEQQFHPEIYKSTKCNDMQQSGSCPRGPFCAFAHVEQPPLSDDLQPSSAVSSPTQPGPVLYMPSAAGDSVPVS
Strand | bound/input enrichment
GGGAAGCUCCCUGGCAGCUGUGUAGUCGCGUGGACACACUGUUCUCACAGACUACAUGCAUACUGUGCUACCUUUGAUGUUCGCUUUCUAAAAAAAGGACUAUGCAGUUUUAUUGUACAG | 0.0874 ratio
AGUAUAUGUAAAUGUCUGUUUUUCAUAAUUGCUCUUUAUAUUGUGUGUUAUCAGACAAGAUAGUUAUUUAAGAAACAUGGGAAAUGCAGAAAUGACUGCAGUGCAGCAGUAAUUAUGGUG | 2.19 ratio
GAAAGUUCACAAAUGACAGAACAUAGAAAGGUUUCUGAUCACAUACAGUGGUUUAACAAGCUUUCUUUAAAUGAACCAAAUAGAAUAAAAGUCAAGUCACCUCUUAAGUUUCAGCGUACU | 2.15 ratio
UCCUGUGGGUUCUUGGGUGUGUUUGCCACAUCAAGAUUUUAGGGAAGGGGGGUAUAUGUGUAGUAGGGAUGCCGUUUGAAAACAGGCACUCUUCCCCUGAGGAUGGGAAAGGAGCUCUUC | 0.679 ratio
GACGUGGUGGUAGCCGUUGGGUUGGGAAAGUGAGGGAUUUUUGGCCUCGUUUCUCCUGCUUCUUUUCUCCUCCCUUUUACUUUGCCGGUAGAACACAGUUAUGGGUCGCAAGAAGAAGAA | 0.441 ratio
ACUGUAAGAGUGUGUGUGUUGCAUGUUUACAUAAAACAAUUUCAUUCUGAAGGAUUAUUUCAACUAUGUUUAUAUGUAAUACCUAACAGGUUGUAAAUAGUGUAUACUAUUGAUUUUUAA | 0.322 ratio
GGGUUUGGGGUAGAAGGGAGGGAGGGGGCAGGACAGUGUGGAAUCUCUAGGGUGUAUGGGUAGGUAGGGGGCACAGUUAGUUCUAAGUGGGCUUUUAUGCUAAAAGCCUCUGGGGAUAUC | 14.7 ratio
CCUCUUGCCAGGAGUCCAUGUUUGUUCUACCCGAACUUUGGACUGUUAACUAGAGAAGUGAUAGACUGAUGAACCUUCUAGUGUUGUCUGCUCCAUACGGGAAAUGAGCUUCAAGGCCAA | 0.192 ratio

Single results of other studies
Molecule | target | assay | test system | conditions | how to read | measurement | value
PhoQ, residues 284 288 289 292 302 303 AANNSF | PhoP, residues 12 14 15 18 19 QYCSL (Escherichia coli, UniProt P23836) | Sort-seq, measured: YFP reporter | E. coli | PhoQ-PhoP variant library, added: 10 µM Mg2+ | baseline: high Mg2+ state, higher = stronger signaling | fold induction | 5.2

Some of these lines once more (sample 3):
Strand | bound/input enrichment
GACGUGGUGGUAGCCGUUGGGUUGGGAAAGUGAGGGAUUUUUGGCCUCGUUUCUCCUGCUUCUUUUCUCCUCCCUUUUACUUUGCCGGUAGAACACAGUUAUGGGUCGCAAGAAGAAGAA | 0.441 ratio
UCCUGUGGGUUCUUGGGUGUGUUUGCCACAUCAAGAUUUUAGGGAAGGGGGGUAUAUGUGUAGUAGGGAUGCCGUUUGAAAACAGGCACUCUUCCCCUGAGGAUGGGAAAGGAGCUCUUC | 0.679 ratio
